Assay results pooled from the literature.
Every numbered part comes from another study and shows a few of its results, in no order. Changes are numbered by the printed parent chain.

Block 1
Target: ABI1, truncated, D143A, DHFR fusion (Arabidopsis thaliana)
Technique: DHFR PCA, deep sequencing
Sample: yeast
Setting: methotrexate growth selection, single substitutions
Added: (+)-ABA 0.032 µM
Relative to: wild-type fitted maximum
Direction: higher = stronger binding
Quantity: relative binding score
Starting sequence: PYL1, truncated, DHFR fusion (Arabidopsis thaliana); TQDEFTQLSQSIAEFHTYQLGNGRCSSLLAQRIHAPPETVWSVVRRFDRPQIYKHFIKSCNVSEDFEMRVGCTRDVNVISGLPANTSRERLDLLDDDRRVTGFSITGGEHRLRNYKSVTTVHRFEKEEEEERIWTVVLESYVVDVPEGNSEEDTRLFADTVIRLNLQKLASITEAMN; partner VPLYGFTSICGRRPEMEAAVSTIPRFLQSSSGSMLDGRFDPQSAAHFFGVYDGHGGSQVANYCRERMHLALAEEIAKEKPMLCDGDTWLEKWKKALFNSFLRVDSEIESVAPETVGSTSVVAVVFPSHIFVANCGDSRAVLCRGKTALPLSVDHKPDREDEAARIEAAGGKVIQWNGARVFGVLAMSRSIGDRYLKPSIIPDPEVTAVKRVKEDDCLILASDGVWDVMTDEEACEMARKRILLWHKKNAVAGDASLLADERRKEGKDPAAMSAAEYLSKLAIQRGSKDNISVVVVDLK
V161I: 55.5%
L28F: -2.91%
E64Y: 1.36%
V145A: -3.93%
R99I: 2.45%
A158H: 32.9%
T86W: 72.6%
V100N: 0.141%
S59R: 4.39%
T101A: 8.49%
H34F: 17.9%
L94H: 9.03%
D159Y: -1.43%
F66R: 4.06%
T6N: 37.6%
L138H: 1.87%
E89S: 1.13%

Block 2
Target: BATF, bZIP domain (human)
Technique: DHFR protein complementation
Sample: yeast
Setting: single substitutions, most at no-binding floor
Relative to: wild-type JUN-FOS pair
Direction: higher = stronger binding
Quantity: binding fitness
Starting sequence: JUN, bZIP domain (human); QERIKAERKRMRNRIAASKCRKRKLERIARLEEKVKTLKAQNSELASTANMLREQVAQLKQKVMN; partner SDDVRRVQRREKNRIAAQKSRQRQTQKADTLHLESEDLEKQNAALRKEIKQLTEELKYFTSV
R30L: 0.0909 natural log
M51H: 0.0142 natural log
A46L: 0.019 natural log
K34S: -0.0715 natural log
E44V: -0.0737 natural log
L38V: -0.649 natural log
E32T: -0.127 natural log
Q41I: 0.0335 natural log
S47T: -0.012 natural log
T48W: -0.171 natural log
V56E: -1.3 natural log
V56A: -0.41 natural log
E44A: -0.0135 natural log
A40N: -0.0485 natural log
A49Q: -0.514 natural log
V35Q: -0.347 natural log
E44I: -0.11 natural log

Block 3
Target: Ras GTPase-activating protein-binding protein 1, C-terminal RGG region (G3BP1, Homo sapiens, UniProt Q13283)
UniProt Q13283, sequence (whole entry, looked up): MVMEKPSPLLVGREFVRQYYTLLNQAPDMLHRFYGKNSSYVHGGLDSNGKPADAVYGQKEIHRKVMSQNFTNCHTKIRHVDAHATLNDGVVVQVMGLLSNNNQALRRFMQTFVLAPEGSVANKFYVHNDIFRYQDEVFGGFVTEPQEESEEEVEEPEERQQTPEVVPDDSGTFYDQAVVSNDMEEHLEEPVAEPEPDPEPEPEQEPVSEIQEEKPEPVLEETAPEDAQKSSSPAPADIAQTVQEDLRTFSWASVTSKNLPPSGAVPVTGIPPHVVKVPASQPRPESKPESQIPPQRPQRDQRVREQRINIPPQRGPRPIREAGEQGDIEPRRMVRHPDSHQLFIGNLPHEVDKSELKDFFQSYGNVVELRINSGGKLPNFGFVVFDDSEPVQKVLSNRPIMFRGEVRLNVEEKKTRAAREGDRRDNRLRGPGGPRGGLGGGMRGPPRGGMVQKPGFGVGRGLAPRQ
Technique: RNA Bind-n-Seq
Molecule type: RNA
Sample: in vitro
Concentration: 1 µM
Setting: whole 134-nt RNA, ends assumed
Added: 150 mM KCl
Relative to: input library
Direction: higher = stronger binding
Quantity: log2 enrichment
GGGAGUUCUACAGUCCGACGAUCGCAGGAAGUAAAAACAAAUGGAAAUGCUUCGGAUAGUGGCAGGGGUGGGGGUUGCUAGGGAAAGGGUGGGAUGGGAGUGGGUAAAGAGUUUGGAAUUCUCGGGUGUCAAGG: 2.3
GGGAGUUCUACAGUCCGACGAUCUGGCCCUGGUGGCAUGCGGGGAGGAAGAGGUGGCCUCAUGGAUCGUGGUGGUCCCGGUGGAAUGUUCAGUGGUGGCCGUGGUGGAGACAGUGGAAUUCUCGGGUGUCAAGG: 3.86
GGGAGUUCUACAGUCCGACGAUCGGCCCGACCUGAUCGACUUUGAUAAGCUGAAGGACUCCAAUGCCCGGCACAACCUGGAGCACGCAUUCAAUGUGGCUGAGCGCCAGCUGGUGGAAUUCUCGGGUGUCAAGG: -0.663
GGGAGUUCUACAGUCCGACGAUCUCAAGUCCUGUGCUACACAUCGUAUGUACCGAAUCGGGGUUGGUUGGGGUUGGGGAAAGUAUUAUGUUACGCCGUUCGGAUCUGCACUUCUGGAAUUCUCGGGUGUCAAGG: 0.134
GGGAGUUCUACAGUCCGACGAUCUGGGAGGUGGAUUUUGUUUAUUUUUUUAGCUCAUUUCCAGGGGUGGGAAUUUUUUUUAAAUAUGUGUCAUGAAUAAAGUUGUUUUUGAAAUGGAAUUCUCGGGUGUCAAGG: 3.62
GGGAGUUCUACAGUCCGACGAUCUAACUUUAGAGGAGGAUCUGAUGGAUAUGGCAGUGGACGUGGAUUUGGGGAUAGCUAUAAUGGGUAUGGAGGAGGACCUGGAGGUGGCAAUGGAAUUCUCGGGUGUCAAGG: -0.525
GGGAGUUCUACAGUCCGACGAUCUUGGGUUCAAUAUACGGAGAGUGCCCUGUGCCAAAGCCACGAGUUGAUCGUCCAAGAAAAGUUCCUGUGAUACAAGAGGAGAGGGCAAUGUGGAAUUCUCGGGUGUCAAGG: -2.02
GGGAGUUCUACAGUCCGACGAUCUUAGUGAAUGUAUAGAAGGAGUAAAGGUAGAGCACAAUCCUGACCUGUCAGUUACUGUCAGCACCAAAAAAUCCCACCAGACAUGGACCUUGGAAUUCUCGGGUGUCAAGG: -0.82
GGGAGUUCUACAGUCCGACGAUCCCUCAAGUCCUGUGCUACACAUCGUAUGUACCGAAUCGGGCCGGCCGGCCGGAAAGUAUUAUGUUACGCCGUUCGGAUCUGCACUUCCAGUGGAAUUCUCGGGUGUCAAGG: -0.913

Block 4
Target: CCNA1, cyclin fold, Cln2 fusion (human)
Technique: yeast growth competition, sequencing
Sample: yeast
Setting: weak parent motif
Relative to: not given
Direction: higher = stronger binding
Quantity: normalised enrichment score
Starting sequence: USP37 docking peptide (human); PSAKRSLGFLPQP
Q12A: 0.412
K4A: 0.246
P11A: -0.295
S2A: 0.0454
G8A: 0.229
P1A: -0.156

Block 5
Target: Histone acetyltransferase KAT6A, winged helix 2, GST fusion (KAT6A, Homo sapiens, UniProt Q92794, residues 85-181)
Technique: protein binding microarray
Molecule type: double-stranded DNA, one strand shown
Sample: in vitro
Concentration: not given
Setting: 8-mer, flanks averaged, mean of 2 arrays, mostly near background
Relative to: not given
Direction: higher = stronger binding
Quantity: E-score
Construct (chain): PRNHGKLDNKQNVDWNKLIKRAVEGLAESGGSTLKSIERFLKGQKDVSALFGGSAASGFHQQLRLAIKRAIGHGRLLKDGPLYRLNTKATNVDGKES
ACGCTACA: -0.202
GCAACAAA: 0.179
CCGGCCCG: 0.252
CTAGCAGA: 0.0508
AGGCAAGG: -0.0566
ACACAACG: -0.131
ACGGTACT: -0.0777
GGTCTCCA: 0.00154
GGGGCCCC: 0.114
ACGGCCAA: 0.0182
GAGTTAGA: 0.0569
CCCAGCCG: 0.108
GCGTCACC: 0.0291
CATGAATC: -0.037
GAGTCTCA: -0.117
ACTTCACG: -0.0894
ACCATAAA: 0.0364
GCTAAGAC: 0.127
AAACCGAA: 0.166
GGCGGAAC: 0.131
ACCCTCGC: -0.0437
AGGTGTGG: -0.109

For quick reference, copied from above (block 5):
ACGGTACT: -0.0777
GGTCTCCA: 0.00154
GGGGCCCC: 0.114
ACGGCCAA: 0.0182
GAGTTAGA: 0.0569
CCCAGCCG: 0.108
GCGTCACC: 0.0291
CATGAATC: -0.037
GAGTCTCA: -0.117
ACTTCACG: -0.0894
